Measurements collected from several papers.
Numbered parts are unrelated; each lists some results of a single study.

Sample 1
Target: Sal-like protein 4, full length isoform A (SALL4, Homo sapiens, UniProt Q9UJQ4, residues 1-1053)
UniProt Q9UJQ4, sequence (whole entry, looked up): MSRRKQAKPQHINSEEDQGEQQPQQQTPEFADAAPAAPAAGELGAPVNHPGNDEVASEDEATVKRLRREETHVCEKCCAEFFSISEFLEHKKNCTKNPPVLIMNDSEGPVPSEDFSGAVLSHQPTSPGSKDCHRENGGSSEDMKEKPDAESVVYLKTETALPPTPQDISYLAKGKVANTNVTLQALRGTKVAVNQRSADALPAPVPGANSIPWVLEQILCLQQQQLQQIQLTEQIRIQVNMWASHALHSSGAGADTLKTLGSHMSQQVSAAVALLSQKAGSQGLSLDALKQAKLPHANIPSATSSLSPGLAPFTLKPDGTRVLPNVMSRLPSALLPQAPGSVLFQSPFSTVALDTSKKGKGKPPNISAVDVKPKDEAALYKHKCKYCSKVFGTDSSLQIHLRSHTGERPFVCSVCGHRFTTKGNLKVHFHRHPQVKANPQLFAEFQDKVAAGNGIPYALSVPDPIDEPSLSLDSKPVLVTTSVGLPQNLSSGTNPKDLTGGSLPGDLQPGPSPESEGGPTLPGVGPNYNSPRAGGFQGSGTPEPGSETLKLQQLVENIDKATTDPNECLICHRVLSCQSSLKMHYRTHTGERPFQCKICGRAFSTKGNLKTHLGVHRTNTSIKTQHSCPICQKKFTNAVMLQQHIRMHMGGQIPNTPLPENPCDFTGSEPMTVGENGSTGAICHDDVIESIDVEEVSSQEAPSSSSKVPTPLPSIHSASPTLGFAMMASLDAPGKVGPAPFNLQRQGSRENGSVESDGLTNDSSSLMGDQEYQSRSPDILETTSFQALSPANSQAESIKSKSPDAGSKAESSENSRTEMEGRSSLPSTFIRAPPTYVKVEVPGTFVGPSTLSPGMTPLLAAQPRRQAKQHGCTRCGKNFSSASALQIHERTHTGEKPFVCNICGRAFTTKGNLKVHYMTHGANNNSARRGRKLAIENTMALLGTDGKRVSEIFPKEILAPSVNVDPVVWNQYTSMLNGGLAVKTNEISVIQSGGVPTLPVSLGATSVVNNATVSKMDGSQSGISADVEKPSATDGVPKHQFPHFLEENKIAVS
Technique: universal PBM
Form: double-stranded DNA, one strand shown
Medium: in vitro
Tested at: 600 nM
Setting: 8-mer, flanks averaged, mean of replicates
Reading: higher = stronger binding
For `GCTATGGA`, the E-score was 0.0769.
For `CCTTTTTA`, the E-score was 0.136.
The E-score of `AAGCGGCC` is reported as -0.315.
The E-score of `ATACTGTC` is reported as 0.232.
For `GCTCTGGA`, the E-score was -0.0306.
`AGCTAGTC` gave an E-score of -0.028.
The E-score of `ACTGGAGC` is reported as -0.1.
`GCGTCACA` gave an E-score of -0.0958.

Sample 2
Target: Probable WRKY transcription factor 50, DNA-binding domain (WRKY50, Arabidopsis thaliana, UniProt Q8VWQ5, residues 99-173)
Technique: DNA-protein interaction ELISA
Form: double-stranded DNA, one strand shown
Medium: in vitro, bacterial lysate
Tested at: not given
Setting: whole dsDNA probe, crude lysate protein
Baseline: highest signal in screen
Reading: higher = stronger binding
Construct (chain): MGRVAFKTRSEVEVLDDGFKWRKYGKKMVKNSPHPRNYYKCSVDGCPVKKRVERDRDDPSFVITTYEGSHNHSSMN
`AAAAAAGTAGGTGCTGATGCTGGCCGAAAA` has a relative absorbance of 12.2 % of maximum.
`AAAAAATGTCTAGACTCGGACATTCGAAAA` has a relative absorbance of 14.3 % of maximum.
`AAAAAACCCTACATCGCATATAAGAGAAAA` gave a relative absorbance of 8.22 % of maximum.
For `AAAAAATGGCTCGGGTTCCAAGGTTGAAAA`, the relative absorbance was 22.6 % of maximum.

Sample 3
Molecule: PhoQ, residues 284 288 289 292 302 303 NLSRDF
Technique: Sort-seq
Item: YFP reporter
Medium: E. coli
Setting: PhoQ-PhoP variant library
Added: 10 µM Mg2+
Baseline: high Mg2+ state
Reading: higher = stronger signaling
The fold induction was 0.811 (PhoP, residues 12 14 15 18 19 LHTVL (Escherichia coli, UniProt P23836)).
It gave 16.9 for fold induction (PhoP, residues 12 14 15 18 19 NQCAL (Escherichia coli, UniProt P23836)).
PhoP, residues 12 14 15 18 19 TQAML (Escherichia coli, UniProt P23836) — fold induction: 9.43.

Sample 4
Target: Histone acetyltransferase KAT6A, both winged helices, GST fusion (KAT6A, Homo sapiens, UniProt Q92794, residues 1-181)
Technique: protein binding microarray
Form: double-stranded DNA, one strand shown
Medium: in vitro
Tested at: not given
Setting: 8-mer, flanks averaged, mean of 2 arrays, mostly near background
Baseline: not given
Reading: higher = stronger binding
Construct (chain): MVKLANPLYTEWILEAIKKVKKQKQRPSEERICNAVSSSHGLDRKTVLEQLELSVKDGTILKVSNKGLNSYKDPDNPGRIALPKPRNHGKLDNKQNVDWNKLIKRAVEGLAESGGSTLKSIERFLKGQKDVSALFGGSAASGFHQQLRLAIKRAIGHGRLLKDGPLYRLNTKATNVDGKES
For `GGAAGCGA`, the E-score was 0.0357.
For `ATCAGAAT`, the E-score was -0.127.
The E-score of `TCACCCAA` is reported as -0.165.
For `GGATGGAC`, the E-score was -0.0264.
With `CCCAGATA` the E-score was -0.213.
With `AGAGGCTA` the E-score was -0.241.
With `CTATGAGC` the E-score was -0.0969.
`AAATGGCG` gave an E-score of 0.109.
For `CGAGCTTC`, the E-score was -0.00041.
`CTTGTACC` gave an E-score of -0.0991.
`GGCCAAGA` gave an E-score of -0.118.

Some of these lines once more (sample 2):
`AAAAAACCCTACATCGCATATAAGAGAAAA` gave a relative absorbance of 8.22 % of maximum.
For `AAAAAATGGCTCGGGTTCCAAGGTTGAAAA`, the relative absorbance was 22.6 % of maximum.
